Measurements of several laboratories.
Each numbered part is a random draw from the data of one study; scales do not carry over between parts. Changes are numbered by the printed parent chain.
UniProt Q16539, sequence (whole entry, looked up): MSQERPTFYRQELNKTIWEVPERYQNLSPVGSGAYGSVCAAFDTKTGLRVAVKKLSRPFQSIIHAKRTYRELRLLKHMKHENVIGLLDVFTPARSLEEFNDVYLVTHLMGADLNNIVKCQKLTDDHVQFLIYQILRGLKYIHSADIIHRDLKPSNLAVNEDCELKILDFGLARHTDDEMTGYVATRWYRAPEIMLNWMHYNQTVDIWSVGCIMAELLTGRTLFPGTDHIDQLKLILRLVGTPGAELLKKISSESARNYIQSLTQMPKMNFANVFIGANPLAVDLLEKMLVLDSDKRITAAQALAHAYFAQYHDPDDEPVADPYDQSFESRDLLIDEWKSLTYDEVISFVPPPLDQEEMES
UniProt P45985, sequence (whole entry, looked up): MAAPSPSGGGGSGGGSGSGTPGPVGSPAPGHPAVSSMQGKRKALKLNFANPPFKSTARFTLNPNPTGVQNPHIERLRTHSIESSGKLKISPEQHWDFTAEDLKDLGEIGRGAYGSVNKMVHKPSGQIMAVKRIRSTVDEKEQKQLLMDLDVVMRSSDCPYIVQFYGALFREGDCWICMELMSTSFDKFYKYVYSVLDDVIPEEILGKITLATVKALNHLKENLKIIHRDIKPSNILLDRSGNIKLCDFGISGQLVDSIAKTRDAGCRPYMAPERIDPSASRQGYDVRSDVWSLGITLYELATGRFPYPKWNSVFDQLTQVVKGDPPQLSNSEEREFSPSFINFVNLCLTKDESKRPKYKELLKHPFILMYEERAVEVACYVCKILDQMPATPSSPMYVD
UniProt P10721, sequence (whole entry, unmodified, looked up): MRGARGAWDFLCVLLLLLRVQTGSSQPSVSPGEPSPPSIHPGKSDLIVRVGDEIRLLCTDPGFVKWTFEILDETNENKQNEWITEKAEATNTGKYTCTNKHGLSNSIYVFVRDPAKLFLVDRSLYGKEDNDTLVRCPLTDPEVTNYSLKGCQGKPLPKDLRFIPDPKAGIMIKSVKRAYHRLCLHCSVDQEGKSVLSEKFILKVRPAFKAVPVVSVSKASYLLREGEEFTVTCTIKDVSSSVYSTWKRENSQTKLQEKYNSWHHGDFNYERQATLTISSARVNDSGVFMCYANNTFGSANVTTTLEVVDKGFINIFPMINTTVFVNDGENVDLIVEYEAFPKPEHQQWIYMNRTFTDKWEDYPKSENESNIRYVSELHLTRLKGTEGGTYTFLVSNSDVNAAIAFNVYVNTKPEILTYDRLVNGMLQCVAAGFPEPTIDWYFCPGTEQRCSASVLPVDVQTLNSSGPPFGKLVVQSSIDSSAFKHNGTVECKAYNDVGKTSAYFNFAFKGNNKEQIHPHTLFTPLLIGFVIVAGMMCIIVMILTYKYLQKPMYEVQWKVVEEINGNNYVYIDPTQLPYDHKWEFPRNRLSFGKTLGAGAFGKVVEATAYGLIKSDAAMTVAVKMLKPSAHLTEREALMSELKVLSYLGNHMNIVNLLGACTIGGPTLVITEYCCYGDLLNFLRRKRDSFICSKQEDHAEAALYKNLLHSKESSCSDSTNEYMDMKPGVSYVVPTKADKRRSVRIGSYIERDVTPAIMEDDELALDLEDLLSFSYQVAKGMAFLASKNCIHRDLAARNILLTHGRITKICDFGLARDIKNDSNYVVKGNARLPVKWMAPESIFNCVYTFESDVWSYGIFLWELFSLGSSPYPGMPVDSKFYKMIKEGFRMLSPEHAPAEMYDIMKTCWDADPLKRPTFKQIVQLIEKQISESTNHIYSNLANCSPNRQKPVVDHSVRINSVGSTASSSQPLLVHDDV
UniProt P19784, sequence (whole entry, looked up): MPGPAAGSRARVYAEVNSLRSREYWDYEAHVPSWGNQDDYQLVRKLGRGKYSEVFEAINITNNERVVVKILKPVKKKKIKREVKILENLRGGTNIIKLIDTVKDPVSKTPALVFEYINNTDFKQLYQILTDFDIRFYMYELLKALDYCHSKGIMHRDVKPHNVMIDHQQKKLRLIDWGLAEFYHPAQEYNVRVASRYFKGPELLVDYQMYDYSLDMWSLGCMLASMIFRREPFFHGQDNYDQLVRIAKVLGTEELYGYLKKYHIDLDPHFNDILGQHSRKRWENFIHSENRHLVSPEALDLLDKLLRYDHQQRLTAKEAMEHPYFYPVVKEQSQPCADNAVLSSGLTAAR
UniProt Q9H2K8, sequence (whole entry, looked up): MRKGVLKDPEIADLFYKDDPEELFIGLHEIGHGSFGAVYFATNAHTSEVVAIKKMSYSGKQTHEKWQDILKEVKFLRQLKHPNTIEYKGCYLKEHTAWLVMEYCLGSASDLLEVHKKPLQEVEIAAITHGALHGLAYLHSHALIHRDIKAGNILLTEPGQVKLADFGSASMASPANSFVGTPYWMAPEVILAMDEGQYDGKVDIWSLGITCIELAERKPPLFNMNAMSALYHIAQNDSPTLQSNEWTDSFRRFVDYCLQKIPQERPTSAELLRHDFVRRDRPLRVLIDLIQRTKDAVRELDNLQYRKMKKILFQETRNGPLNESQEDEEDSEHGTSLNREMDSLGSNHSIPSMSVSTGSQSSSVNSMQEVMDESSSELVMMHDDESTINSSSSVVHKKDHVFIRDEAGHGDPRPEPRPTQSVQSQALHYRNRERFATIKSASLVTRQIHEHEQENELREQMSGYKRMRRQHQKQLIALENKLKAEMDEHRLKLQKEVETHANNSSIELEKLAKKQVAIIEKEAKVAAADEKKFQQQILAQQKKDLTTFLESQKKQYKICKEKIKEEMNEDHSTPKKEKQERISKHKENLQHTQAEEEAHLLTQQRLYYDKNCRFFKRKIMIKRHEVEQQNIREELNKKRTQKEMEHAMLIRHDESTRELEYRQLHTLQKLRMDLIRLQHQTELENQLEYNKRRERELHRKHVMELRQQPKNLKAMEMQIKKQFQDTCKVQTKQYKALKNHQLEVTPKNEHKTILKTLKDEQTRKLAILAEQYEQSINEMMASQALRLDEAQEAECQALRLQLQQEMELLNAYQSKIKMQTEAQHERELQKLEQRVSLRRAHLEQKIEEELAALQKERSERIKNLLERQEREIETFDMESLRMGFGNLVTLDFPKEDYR
UniProt P42336, sequence (whole entry, unmodified, looked up): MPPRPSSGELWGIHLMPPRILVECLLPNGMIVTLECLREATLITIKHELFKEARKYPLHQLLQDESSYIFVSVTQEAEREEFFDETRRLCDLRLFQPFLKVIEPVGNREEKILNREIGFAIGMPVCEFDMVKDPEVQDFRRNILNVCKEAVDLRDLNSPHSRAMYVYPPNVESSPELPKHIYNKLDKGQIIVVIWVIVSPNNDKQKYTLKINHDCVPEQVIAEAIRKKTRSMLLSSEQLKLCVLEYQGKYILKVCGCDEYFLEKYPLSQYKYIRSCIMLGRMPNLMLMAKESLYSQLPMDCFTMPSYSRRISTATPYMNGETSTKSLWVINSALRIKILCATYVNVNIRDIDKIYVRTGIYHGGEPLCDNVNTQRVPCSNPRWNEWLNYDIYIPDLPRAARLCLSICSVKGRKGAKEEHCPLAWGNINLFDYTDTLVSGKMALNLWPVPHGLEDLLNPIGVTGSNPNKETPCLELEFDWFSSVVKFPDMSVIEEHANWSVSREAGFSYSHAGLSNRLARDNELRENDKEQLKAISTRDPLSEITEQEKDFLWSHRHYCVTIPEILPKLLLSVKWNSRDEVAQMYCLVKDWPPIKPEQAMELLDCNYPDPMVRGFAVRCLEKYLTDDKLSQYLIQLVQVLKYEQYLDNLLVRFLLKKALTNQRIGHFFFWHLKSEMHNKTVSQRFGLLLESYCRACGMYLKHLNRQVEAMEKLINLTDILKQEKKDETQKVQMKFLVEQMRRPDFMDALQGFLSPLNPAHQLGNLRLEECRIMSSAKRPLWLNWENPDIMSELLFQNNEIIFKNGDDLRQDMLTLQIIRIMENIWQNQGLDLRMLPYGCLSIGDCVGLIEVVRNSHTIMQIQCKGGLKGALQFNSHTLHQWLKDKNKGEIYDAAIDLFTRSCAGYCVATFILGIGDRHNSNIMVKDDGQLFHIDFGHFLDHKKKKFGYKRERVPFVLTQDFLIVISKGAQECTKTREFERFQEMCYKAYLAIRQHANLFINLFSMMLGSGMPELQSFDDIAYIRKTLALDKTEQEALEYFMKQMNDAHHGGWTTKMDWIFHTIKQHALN
UniProt P49841, sequence (whole entry, looked up): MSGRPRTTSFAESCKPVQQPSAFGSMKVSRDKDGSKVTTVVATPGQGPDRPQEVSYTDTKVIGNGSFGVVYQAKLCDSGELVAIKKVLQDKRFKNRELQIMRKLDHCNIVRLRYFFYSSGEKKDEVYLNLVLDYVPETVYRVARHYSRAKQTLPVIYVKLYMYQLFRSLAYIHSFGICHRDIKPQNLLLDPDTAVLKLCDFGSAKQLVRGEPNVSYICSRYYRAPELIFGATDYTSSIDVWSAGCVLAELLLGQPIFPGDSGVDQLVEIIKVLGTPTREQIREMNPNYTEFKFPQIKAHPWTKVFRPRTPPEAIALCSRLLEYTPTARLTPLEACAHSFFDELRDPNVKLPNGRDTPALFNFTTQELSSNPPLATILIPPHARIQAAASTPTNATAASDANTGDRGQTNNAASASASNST
UniProt P78356, sequence (whole entry, looked up): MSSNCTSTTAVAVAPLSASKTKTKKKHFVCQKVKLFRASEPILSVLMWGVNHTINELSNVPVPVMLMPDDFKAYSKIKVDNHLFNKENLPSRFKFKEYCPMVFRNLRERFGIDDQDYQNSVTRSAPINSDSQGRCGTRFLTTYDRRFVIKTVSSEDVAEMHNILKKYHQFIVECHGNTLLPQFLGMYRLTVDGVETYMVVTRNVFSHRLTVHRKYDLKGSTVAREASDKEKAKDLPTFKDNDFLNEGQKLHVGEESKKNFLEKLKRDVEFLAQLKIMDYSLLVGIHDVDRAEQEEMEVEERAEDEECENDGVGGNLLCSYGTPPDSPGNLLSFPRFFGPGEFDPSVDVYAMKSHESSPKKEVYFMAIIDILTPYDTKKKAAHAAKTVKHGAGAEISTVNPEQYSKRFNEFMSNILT

Series 1
Target: Histone acetyltransferase KAT6A, winged helix 1, GST fusion (KAT6A, Homo sapiens, UniProt Q92794, residues 1-85)
Technique: protein binding microarray
Form: double-stranded DNA, one strand shown
Medium: in vitro
Concentration: not given
Notes: 8-mer, flanks averaged, mean of 2 arrays, mostly near background
Reference: not given
Reading: higher = stronger binding
Target sequence (chain): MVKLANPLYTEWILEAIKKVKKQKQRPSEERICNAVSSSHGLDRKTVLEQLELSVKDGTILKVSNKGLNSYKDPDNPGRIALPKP
With `CATGCTAC` the E-score was -0.0811.
With `AGCATCCG` the E-score was 0.0182.
`CAAACTCA` has an E-score of -0.212.
With `CCGTAACC` the E-score was 0.38.
For `GAACCACC`, the E-score was -0.109.
With `ACTACTAA` the E-score was -0.0167.
For `AGGTTCAC`, the E-score was -0.0187.
With `CCTTCGCC` the E-score was 0.134.

Series 2
Host: human
Medium: microsomes or S9
Concentration: 2 µM
Time: 0.5 h
The remaining compound of `Cc1nc(-c2ccc(F)cc2)cc2c1sc1ccccc12` is reported as 17.1%.
The remaining compound of `O=C(O)c1ccc2c(c1)NC(=O)c1ccccc1S2(=O)=O` is reported as 88.5%.
`CCC(C)(C)C1CCc2c(sc(NC(=O)CC(C)CC(=O)O)c2C(N)=O)C1` (stereo not drawn) gave a remaining compound of over 99%.

Series 3
Organism: Sarcocystis neurona
Read-out: parasite growth
Concentration: 10 µM
Notes: secondary screen
With `CC(=O)O[C@@]12CO[C@@H]1C[C@H](O)[C@@]1(C)C(=O)[C@H](O)C3=C(C)[C@@H](OC(=O)[C@H](O)[C@@H](NC(=O)OC(C)(C)C)c4ccccc4)C[C@@](O)([C@@H](OC(=O)c4ccccc4)[C@H]21)C3(C)C` the inhibition was 50.1%.
`C[C@H]1[C@H](OC(=O)CCC(=O)O)O[C@@H]2O[C@@]3(C)CC[C@H]4[C@H](C)CC[C@@H]1[C@@]24OO3` gave an inhibition of 76.3%.
`CC[C@]1(O)C[C@@H]2CN(CCc3c([nH]c4ccccc34)[C@@](C(=O)OC)(c3cc4c(cc3OC)N(C)[C@H]3[C@@](O)(C(N)=O)[C@H](O)[C@]5(CC)C=CCN6CC[C@]43[C@@H]65)C2)C1` has an inhibition of -2.9%.

Series 4
Cell line: HaCaT
Concentration: 100 µM
Time: 36 h
The viability of `O=C(O)c1cc(O)c(O)c(O)c1` is reported as 11.9%.
`C#C[C@]1(O)CC[C@H]2[C@@H]3CCC4=CC(=O)CC[C@@H]4[C@H]3CC[C@@]21C` has a viability of 99.9%.
The viability of `COc1cc2c(Nc3ccc(Br)cc3F)ncnc2cc1OCC1CCN(C)CC1` is reported as 12.1%.
For `C[C@@H](O[C@H]1OCCN(Cc2n[nH]c(=O)[nH]2)[C@H]1c1ccc(F)cc1)c1cc(C(F)(F)F)cc(C(F)(F)F)c1`, the viability was 6.24%.

Series 5
SMILES: CS(=O)(=O)N1CCCC(NC(=O)[C@H](CCC2CCCCC2)NC(=O)c2ccc(CNc3ncnc4c3nnn4-c3ccccc3)cc2)C1 (stereo partly drawn)
Technique: competition with immobilised ligand
Concentration: 0.1 µM
It gave 100% for remaining binding (NUAK2 (Homo sapiens, UniProt Q9H093); cell-free assay).
For MAPK14 (Homo sapiens, UniProt Q16539); cell-free assay: remaining binding read 100%.
It gave 79% for remaining binding (BRSK2 (Homo sapiens, UniProt Q8IWQ3); cell-free assay).
It gave 87% for remaining binding (DCLK3 (Homo sapiens, UniProt Q9C098); cell-free assay).
For TAOK3 (Homo sapiens, UniProt Q9H2K8); cell-free assay: remaining binding read 100%.
NIM1K (Homo sapiens, UniProt Q8IY84); cell-free assay — remaining binding: 60%.
The remaining binding was 100% (KIT (Homo sapiens, UniProt P10721, V559D/V654A); cell-free assay).
PIK3CA (Homo sapiens, UniProt P42336, H1047L); cell-free assay — remaining binding: 76%.
SGK3 (Homo sapiens, UniProt Q96BR1); cell-free assay — remaining binding: 83%.
The remaining binding was 100% (Tyrosine-protein kinase ABL1, phosphorylated (ABL1, Homo sapiens, UniProt P00519, M351T); cell-free assay).
CDC42BPB (Homo sapiens, UniProt Q9Y5S2); cell-free assay — remaining binding: 90%.
It gave 100% for remaining binding (TAOK1 (Homo sapiens, UniProt Q7L7X3); cell-free assay).
MAP2K4 (Homo sapiens, UniProt P45985); cell-free assay — remaining binding: 100%.
PIP4K2B (Homo sapiens, UniProt P78356); cell-free assay — remaining binding: 100%.
For Tyrosine-protein kinase ABL1, non-phosphorylated (ABL1, Homo sapiens, UniProt P00519, F317I); binding: remaining binding read 88%.
The remaining binding was 100% (HCK (Homo sapiens, UniProt P08631); cell-free assay).
For FLT3 (Homo sapiens, UniProt P36888, N841I); cell-free assay: remaining binding read 99%.
The remaining binding was 85% (CSNK2A2 (Homo sapiens, UniProt P19784); cell-free assay).
GSK3B (Homo sapiens, UniProt P49841); cell-free assay — remaining binding: 100%.

Series 6
Target: CCNE1, cyclin fold, Cln2 fusion (human)
Technique: yeast growth competition, sequencing
Medium: yeast
Notes: strong parent motif
Reference: not given
Reading: higher = stronger binding
Starting sequence: INSM1 docking peptide (human); PKAIRKLHFEDEV; partner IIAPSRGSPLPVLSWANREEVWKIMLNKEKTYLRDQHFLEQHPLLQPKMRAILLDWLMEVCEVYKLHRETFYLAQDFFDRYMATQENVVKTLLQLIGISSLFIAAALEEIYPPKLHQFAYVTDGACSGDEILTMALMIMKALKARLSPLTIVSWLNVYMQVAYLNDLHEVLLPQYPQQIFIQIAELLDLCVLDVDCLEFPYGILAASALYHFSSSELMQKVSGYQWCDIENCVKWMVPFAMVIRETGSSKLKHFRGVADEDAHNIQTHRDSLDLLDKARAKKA
For `PKAIRKLPFEDEV [H8P]`, “normalised enrichment score” read 0.735.
`PKAIYKLHFEDEV [R5Y]`: “normalised enrichment score” 0.469.
`PKAIRKLHFEAEV [D11A]`: “normalised enrichment score” 2.85.
`PQAIRKLHFEDEV [K2Q]` — result for “normalised enrichment score”: 3.97.
`PKARRKLHFEDEV [I4R]` — result for “normalised enrichment score”: 5.78.
Under “normalised enrichment score”, `PKAIRYLHFEDEV [K6Y]` is recorded as 2.82.
For `PKAWRKLHFEDEV [I4W]`, “normalised enrichment score” read 1.01.
`PKAIRKLHMEDEV [F9M]`: “normalised enrichment score” 0.406.

Excerpt of the above (series 5):
For MAPK14 (Homo sapiens, UniProt Q16539); cell-free assay: remaining binding read 100%.
It gave 79% for remaining binding (BRSK2 (Homo sapiens, UniProt Q8IWQ3); cell-free assay).
It gave 87% for remaining binding (DCLK3 (Homo sapiens, UniProt Q9C098); cell-free assay).
For TAOK3 (Homo sapiens, UniProt Q9H2K8); cell-free assay: remaining binding read 100%.
NIM1K (Homo sapiens, UniProt Q8IY84); cell-free assay — remaining binding: 60%.
